Assay results of several laboratories.
Compare with care: the assays were run in different laboratories. Numbers after ± are the reported error. Where no end group is shown, it is not given here.
HBA1 with beta chain: Hemoglobin subunit alpha, with beta chain (HBA1, Homo sapiens, UniProt P69905)
Chain of UniProt P69905 (whole entry, looked up): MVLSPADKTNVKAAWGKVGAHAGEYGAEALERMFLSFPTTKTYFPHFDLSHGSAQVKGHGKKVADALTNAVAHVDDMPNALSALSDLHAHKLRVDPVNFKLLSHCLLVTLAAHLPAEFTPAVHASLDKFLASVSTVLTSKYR
WWOX WW1 domain: WW domain-containing oxidoreductase, WW1 domain (WWOX, Homo sapiens, UniProt Q9NZC7)
Chain of UniProt Q9NZC7 (whole entry, unmodified, looked up): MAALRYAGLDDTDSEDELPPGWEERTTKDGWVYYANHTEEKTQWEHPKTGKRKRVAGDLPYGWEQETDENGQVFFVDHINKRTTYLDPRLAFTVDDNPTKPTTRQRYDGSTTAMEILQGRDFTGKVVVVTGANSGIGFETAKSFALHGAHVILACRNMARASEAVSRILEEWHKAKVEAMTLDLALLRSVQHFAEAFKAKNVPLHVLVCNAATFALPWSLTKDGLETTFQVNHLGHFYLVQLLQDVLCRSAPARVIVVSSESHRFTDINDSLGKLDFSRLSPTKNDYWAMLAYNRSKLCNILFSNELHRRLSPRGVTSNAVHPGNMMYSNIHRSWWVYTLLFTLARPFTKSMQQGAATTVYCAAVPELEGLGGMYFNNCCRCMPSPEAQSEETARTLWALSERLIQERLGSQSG
P2rx7: P2X purinoceptor 7 (P2rx7, Rattus norvegicus, UniProt Q64663)
MAL12: Alpha-glucosidase MAL12 (MAL12, Saccharomyces cerevisiae S288c, UniProt P53341)
Chain of UniProt P53341 (whole entry, looked up): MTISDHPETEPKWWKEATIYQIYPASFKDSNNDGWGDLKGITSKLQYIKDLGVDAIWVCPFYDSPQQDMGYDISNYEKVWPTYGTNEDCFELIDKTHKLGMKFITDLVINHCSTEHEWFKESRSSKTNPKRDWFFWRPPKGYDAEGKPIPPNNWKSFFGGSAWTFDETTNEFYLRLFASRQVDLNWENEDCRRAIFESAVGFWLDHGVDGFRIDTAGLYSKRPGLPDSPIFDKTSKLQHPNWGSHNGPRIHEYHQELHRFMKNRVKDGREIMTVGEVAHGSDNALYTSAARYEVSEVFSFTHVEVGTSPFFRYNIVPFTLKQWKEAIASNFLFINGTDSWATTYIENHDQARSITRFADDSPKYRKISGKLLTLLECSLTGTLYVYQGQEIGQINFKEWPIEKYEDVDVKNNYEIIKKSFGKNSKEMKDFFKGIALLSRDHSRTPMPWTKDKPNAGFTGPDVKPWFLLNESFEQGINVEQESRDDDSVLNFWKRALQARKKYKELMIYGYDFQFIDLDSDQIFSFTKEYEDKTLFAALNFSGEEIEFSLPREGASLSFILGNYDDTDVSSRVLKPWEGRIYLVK
MAOA: Amine oxidase [flavin-containing] A (MAOA, Homo sapiens, UniProt P21397)
Chain of UniProt P21397 (whole entry, looked up): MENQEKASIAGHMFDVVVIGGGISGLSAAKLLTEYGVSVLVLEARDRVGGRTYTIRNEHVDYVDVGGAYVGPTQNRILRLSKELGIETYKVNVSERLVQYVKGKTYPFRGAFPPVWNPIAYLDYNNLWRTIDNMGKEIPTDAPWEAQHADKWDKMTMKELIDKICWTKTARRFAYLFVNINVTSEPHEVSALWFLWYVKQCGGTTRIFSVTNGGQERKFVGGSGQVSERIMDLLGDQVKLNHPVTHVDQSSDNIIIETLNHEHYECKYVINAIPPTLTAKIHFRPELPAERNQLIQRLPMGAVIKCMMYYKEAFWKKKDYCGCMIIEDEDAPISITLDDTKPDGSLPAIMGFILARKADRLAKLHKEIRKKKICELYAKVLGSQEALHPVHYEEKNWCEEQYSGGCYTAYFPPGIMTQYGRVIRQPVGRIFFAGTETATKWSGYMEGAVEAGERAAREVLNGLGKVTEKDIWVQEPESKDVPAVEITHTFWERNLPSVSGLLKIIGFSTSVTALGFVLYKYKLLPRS
GRM4: Metabotropic glutamate receptor 4 (GRM4, Homo sapiens, UniProt Q14833)
Chain of UniProt Q14833 (whole entry, looked up): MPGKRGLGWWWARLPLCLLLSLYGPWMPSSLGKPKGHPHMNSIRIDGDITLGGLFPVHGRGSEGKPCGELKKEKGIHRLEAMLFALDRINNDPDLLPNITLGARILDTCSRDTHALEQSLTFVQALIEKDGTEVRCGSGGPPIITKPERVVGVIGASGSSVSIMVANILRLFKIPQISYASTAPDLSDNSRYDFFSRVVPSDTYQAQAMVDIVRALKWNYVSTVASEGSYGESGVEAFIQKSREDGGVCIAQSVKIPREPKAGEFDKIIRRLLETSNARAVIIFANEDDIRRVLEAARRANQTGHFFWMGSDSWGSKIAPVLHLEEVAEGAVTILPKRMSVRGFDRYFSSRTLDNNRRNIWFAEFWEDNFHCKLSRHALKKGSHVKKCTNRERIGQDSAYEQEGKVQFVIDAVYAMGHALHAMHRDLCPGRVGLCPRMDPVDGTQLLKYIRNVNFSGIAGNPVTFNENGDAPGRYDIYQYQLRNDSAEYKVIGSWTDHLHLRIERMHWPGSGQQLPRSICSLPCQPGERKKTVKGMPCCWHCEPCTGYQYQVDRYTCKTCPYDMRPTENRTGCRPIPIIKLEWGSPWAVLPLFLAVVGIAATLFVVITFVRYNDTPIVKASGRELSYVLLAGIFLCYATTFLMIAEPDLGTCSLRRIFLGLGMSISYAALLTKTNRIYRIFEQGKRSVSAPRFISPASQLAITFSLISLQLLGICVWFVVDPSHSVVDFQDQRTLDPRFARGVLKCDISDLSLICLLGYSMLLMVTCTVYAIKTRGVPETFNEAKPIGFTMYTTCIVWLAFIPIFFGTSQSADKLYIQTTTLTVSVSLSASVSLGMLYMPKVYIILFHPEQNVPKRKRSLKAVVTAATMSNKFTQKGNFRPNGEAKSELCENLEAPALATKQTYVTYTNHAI
SCN9A: Sodium channel protein type 9 subunit alpha (SCN9A, Homo sapiens, UniProt Q15858)
Chain of UniProt Q15858 (whole entry, looked up): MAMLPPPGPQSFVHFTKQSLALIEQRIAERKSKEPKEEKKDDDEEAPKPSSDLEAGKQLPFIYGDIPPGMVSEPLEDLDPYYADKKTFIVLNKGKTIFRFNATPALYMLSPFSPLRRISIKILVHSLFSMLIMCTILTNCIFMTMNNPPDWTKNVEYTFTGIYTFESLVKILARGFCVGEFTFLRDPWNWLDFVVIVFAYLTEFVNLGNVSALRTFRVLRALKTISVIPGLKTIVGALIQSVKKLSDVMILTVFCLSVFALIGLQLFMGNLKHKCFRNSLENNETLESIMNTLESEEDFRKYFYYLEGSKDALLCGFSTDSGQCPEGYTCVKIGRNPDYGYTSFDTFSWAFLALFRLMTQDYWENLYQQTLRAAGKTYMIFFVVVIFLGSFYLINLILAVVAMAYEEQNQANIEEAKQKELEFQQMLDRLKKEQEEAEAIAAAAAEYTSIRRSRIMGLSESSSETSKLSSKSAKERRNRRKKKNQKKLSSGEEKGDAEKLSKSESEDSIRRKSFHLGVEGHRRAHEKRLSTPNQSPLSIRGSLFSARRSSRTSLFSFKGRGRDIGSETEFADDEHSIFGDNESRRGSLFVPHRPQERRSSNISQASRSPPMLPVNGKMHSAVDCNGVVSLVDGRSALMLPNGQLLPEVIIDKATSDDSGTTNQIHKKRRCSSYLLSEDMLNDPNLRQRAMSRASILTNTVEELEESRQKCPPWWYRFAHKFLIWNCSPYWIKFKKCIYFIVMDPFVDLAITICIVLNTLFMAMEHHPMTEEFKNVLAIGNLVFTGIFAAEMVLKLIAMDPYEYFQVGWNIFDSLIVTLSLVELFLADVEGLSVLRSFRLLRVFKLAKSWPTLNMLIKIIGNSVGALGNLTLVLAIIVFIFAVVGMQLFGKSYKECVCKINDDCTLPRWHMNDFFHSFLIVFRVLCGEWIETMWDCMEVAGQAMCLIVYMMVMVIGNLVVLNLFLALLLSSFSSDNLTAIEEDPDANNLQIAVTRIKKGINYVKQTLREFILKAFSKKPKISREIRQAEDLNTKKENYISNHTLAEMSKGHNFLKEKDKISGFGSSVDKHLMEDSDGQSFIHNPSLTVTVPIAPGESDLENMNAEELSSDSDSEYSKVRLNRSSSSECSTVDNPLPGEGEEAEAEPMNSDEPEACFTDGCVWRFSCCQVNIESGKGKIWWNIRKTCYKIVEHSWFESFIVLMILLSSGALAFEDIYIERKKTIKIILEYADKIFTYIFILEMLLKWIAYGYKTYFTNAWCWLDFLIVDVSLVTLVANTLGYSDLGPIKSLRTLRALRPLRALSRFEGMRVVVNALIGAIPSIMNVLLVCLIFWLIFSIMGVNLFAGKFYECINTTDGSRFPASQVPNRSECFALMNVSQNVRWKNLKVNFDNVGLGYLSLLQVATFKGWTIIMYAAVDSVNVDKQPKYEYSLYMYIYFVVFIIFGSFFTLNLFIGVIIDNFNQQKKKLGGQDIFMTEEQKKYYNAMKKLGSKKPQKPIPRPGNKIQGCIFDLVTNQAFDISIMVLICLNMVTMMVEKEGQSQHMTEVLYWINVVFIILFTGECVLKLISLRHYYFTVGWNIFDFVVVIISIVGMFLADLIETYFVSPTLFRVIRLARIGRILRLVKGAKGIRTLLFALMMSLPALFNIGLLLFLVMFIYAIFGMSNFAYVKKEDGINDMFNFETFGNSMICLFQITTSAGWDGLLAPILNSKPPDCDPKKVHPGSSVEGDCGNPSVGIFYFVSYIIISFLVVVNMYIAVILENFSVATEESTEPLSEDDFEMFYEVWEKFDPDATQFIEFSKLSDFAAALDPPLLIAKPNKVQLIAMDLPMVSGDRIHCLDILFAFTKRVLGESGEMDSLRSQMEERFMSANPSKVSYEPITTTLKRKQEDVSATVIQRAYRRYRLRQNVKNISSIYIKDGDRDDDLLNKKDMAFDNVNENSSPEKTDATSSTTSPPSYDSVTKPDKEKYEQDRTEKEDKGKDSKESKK
HSPA1A: Heat shock 70 kDa protein 1A (HSPA1A, Homo sapiens, UniProt P0DMV8)
B1: disulfide; chain GLIHQYCQGYWRHVPPSPREAPGAPRSPEPDQKKPRNRRHHPPDT (disulfide (positions not given here))
Chain of UniProt Q02083 (whole entry, looked up): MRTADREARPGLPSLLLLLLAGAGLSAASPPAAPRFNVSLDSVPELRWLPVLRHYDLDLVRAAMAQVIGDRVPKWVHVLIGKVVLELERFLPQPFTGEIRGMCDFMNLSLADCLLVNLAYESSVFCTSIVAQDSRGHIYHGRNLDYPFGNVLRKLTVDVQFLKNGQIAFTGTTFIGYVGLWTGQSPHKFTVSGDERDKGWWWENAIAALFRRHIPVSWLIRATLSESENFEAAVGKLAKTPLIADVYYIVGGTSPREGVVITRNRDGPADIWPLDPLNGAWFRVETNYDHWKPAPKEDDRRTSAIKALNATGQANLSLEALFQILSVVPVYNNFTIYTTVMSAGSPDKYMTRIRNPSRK

Molecule | target | assay | test system | setting | scale | quantity | result
O=Cc1c(O)cccc1OCc1cccc(CO)n1 | HBA1 with beta chain | binding, cation-exchange HPLC |  | 37 °C |  | koff | 0.00161 s⁻¹
CC(C)C[C@H](NC(=O)[C@@H](NC(=O)[C@@H](N)[C@@H](C)O)C(C)C)C(=O)N1CCC[C@H]1C(=O)N1CCC[C@H]1C(=O)N1CCC[C@H]1C(=O)N1CCC[C@H]1C(=O)N[C@@H](Cc1ccc(O)cc1)C(=O)N[C@@H](CCCNC(=N)N)C(=O)N[C@@H](Cc1c[nH]cn1)C(=O)N[C@@H](CCCNC(=N)N)C(=O)N[C@@H](CC(N)=O)C(=O)O | WWOX WW1 domain | binding, ITC |  | pH 7.0, 25 °C |  | ΔG | -5.25 ± 0.06 kcal/mol
Nc1ncnc2c1ncn2[C@@H]1O[C@H](COP(=O)(O)OP(=O)(O)OP(=O)(O)O)[C@@H](O)[C@H]1O | P2rx7 | ion current, whole-cell patch clamp | HEK293, transfected | with: after agonist washout, Ca2+ medium |  | decay time constant τ1 | 0.4 ± 0.2 s
B1 | Neuropilin-2 (NRP2, Homo sapiens, UniProt O60462) | sedimentation velocity AUC |  | 2.5-fold molar excess, pH 7.5, 4 °C, 8 µM b1b2 domain |  | sedimentation coefficient, dimer peak | 4.65 S
COc1ccc(Cl)cc1C(=O)NCCc1ccc(S(=O)(=O)NC(=O)NC2CCCCC2)cc1 | Abcc9/KCNJ11 (Mus musculus, UniProt P70170+Q14654) | channel activity, inhibitor, inside-out patch clamp | HEK293 | 10 µM, with: 50 µM MgATP | relative to: before drug | remaining activity | 22 ± 4%
CC(C)C[C@H](NC(=O)[C@@H](NC(=O)[C@@H](N)[C@@H](C)O)C(C)C)C(=O)N1CCC[C@H]1C(=O)N1CCC[C@H]1C(=O)N1CCC[C@H]1C(=O)N1CCC[C@H]1C(=O)N[C@@H](Cc1ccc(O)cc1)C(=O)N[C@@H](CCCNC(=N)N)C(=O)N[C@@H](C)C(=O)N[C@@H](CCCNC(=N)N)C(=O)N[C@@H](CC(N)=O)C(=O)O | WWOX WW1 domain | binding to WW1 domain, isothermal titration calorimetry |  | pH 7.0, 25 °C |  | entropy term TΔS | -6.2 ± 1.48 kcal/mol
O=C(O)c1cc2ccccc2cn1 | PY04617 (Plasmodium yoelii, UniProt Q7RFT5) | ultrafiltration HPLC-UV |  | 0.1 mM, pH 7.25, 4 °C, 6.5% DMSO, with: methionine competitor |  | UV signal reduction | 91.7 ± 1.1%
VLASVSATHAKSSPY | human IgE | peptide microarray | peptide, walnut-allergic patient sera | concentration not given, 16 h, 4 °C |  | patients with IgE binding | 25%
COc1cc2oc(-c3ccccc3)cc(=O)c2c(OC)c1O | MAL12 | enzyme activity, inhibitor, absorbance |  | 250 µM |  | inhibition | 98.4%
OC1CCCc2ccc(OCc3ccc(Cl)cc3)cc21 (centres unmarked) | MAOA | enzyme activity, inhibitor, dialysis reversibility |  | 4 × IC50, 24 h dialysis | relative to: no inhibitor | remaining activity | 81%
CC(=O)N[C@@H]1[C@@H](O)[C@H](O[C@@H]2O[C@H](CO)[C@@H](O[C@@H]3O[C@H](CO[C@H]4O[C@H](CO[C@H]5O[C@H](CO)[C@@H](O)[C@H](O)[C@@H]5O[C@H]5O[C@H](CO)[C@@H](O)[C@H](O)[C@@H]5O)[C@@H](O)[C@H](O[C@H]5O[C@H](CO)[C@@H](O)[C@H](O)[C@@H]5O)[C@@H]4O)[C@@H](O)[C@H](O[C@H]4O[C@H](CO)[C@@H](O)[C@H](O)[C@@H]4O[C@H]4O[C@H](CO)[C@@H](O)[C@H](O)[C@@H]4O[C@H]4O[C@H](CO)[C@@H](O)[C@H](O)[C@@H]4O)[C@@H]3O)[C@H](O)[C@H]2NC(C)=O)[C@@H](CO)O[C@H]1NC(=O)C[C@H](N)C(=O)O | NT1 (Nicotiana tabacum, UniProt Q94EW1) | glycan binding, glycan array |  | with: Alexa 488-labelled lectin 150 µg/mL |  | fluorescence | 32100 RFU
O=C(Nc1ccccn1)C12CC1/C(=N\O)c1ccccc1O2 (centres unmarked) | GRM4 | calcium mobilisation, positive allosteric modulator | CHO hmGluR4/Gqi5 | with: glutamate EC20 | relative to: PHCCC | maximal potentiation | 94.9%
O=S1(=O)c2ccc(F)cc2Oc2cc(OCC(F)(F)F)ccc21 | MAOA | [11C]clorgyline PET | human | oral, 80 mg vs 20 mg, 2 h |  | inhibition difference | 53.8%
COc1ccccc1/C=N/Nc1nc2ccccc2nc1C | GRM4 | potentiation of glutamate response, positive allosteric modulator | CHO cells expressing Gqi5 | with: glutamate EC20 |  | EC50 | inactive
CCCCCCCCC(=O)NC1CNC1 | NAAA (Homo sapiens, UniProt Q02083) | enzyme activity, inhibitor, fluorogenic PAMCA hydrolysis |  | pH 4.5, with: 5 µM PAMCA |  | IC50 | inactive
O=c1n(CCCN2CCN(c3cccc(Cl)c3)CC2)nc2ccccn12 | OPRM1 (Homo sapiens, UniProt P35372) | binding, radioligand competition | recombinant cells | extrapolated, unreliable |  | Ki | 15.4 µM
CC(C)C[C@H](NC(=O)[C@@H](NC(=O)[C@@H](N)[C@@H](C)O)C(C)C)C(=O)N[C@@H](C)C(=O)N1CCC[C@H]1C(=O)N1CCC[C@H]1C(=O)N1CCC[C@H]1C(=O)N[C@@H](Cc1ccc(O)cc1)C(=O)N[C@@H](CCCNC(=N)N)C(=O)N[C@@H](Cc1c[nH]cn1)C(=O)N[C@@H](CCCNC(=N)N)C(=O)N[C@@H](CC(N)=O)C(=O)O | WWOX WW1 domain | binding to WW1 domain, isothermal titration calorimetry |  | pH 7.0, 25 °C |  | binding free energy ΔG | -5.19 ± 0.11 kcal/mol
COCCCOc1cc(C[C@@H](C[C@H](N)[C@@H](O)C[C@H](C(=O)NCC(C)(C)C(N)=O)C(C)C)C(C)C)ccc1OC | Renin (Rattus norvegicus, UniProt P08424) | inhibitor, measured: angiotensin I | NRK-52E nuclear lysate | 1 µM, 90 min, 37 °C, with: nephrectomized rat plasma angiotensinogen |  | renin activity | 0.13 ± 0.01 nmol/mg/h
COc1ccc2c(=O)c(OC)c(-c3ccccc3)oc2c1 | MAL12 | enzyme activity, inhibitor, absorbance |  | 100 µM |  | inhibition | 91.7%
C=C1c2cccc(O)c2C(=O)C2=C(O)[C@]3(O)C(=O)C(C(N)=O)=C(O)[C@@H](N(C)C)[C@@H]3[C@@H](O)[C@H]12 | Alpha-synuclein, oligomers (SNCA, Homo sapiens, UniProt P37840) | oligomer-vesicle binding, FIDA |  | 5 µM, with: 150 nM oligomers, 50 µM DOPG liposomes | relative to: untreated | reduction in bound oligomers | 15 to 20%
SLFPVIYTQM | H-2 class I histocompatibility antigen, K-B alpha chain, 26 (H2-K1, Mus musculus, UniProt P01901) | H2-K binding, flow cytometry | peptide, RMA-S | 10 µg per 100 µL, 3 h |  | MFI increase | 377%

Molecule | target | assay | test system | setting | scale | quantity | result
CC[C@H](C)[C@H](NC(=O)[C@@H]1CCCN1C(=O)[C@@H]1CCCN1C(=O)[C@@H]1CCCN1C(=O)[C@@H](NC(=O)[C@H](CC(N)=O)NC(=O)[C@@H](N)Cc1ccccc1)[C@@H](C)CC)C(=O)N[C@@H](Cc1ccc(O)cc1)C(=O)N[C@H](C(=O)N[C@@H](CO)C(=O)N[C@@H](CCCNC(=N)N)C(=O)N[C@@H](C)C(=O)O)[C@@H](C)O | WW domain-containing oxidoreductase, WW1-WW2 tandem domains (WWOX, Homo sapiens, UniProt Q9NZC7) | binding, ITC |  | pH 7.0, 25 °C |  | TΔS | -2.1 ± 0.92 kcal/mol
O=C(O)c1ccccc1Nc1cccc(C(F)(F)F)c1 | Trpm8 (Mus musculus, UniProt Q8R4D5) | ion current, two-electrode voltage clamp | Xenopus oocytes | 100 µM, -100 mV, with: menthol 100 µM |  | inhibition | 30%
COC(=O)c1scc(C)c1NC(=O)C(C)N1CCS(=O)(=O)CC1 (centres unmarked) | SCN9A | cell membrane chromatography |  |  | higher = stronger binding | capacity factor k′ | 0
O=Cc1ccc(COC(=O)c2ccccc2)o1 | HBA1 with beta chain | measured: haemoglobin A adduct | human normal whole blood | 2000 µM, 24 h, hematocrit 30% |  | peak modification | 21%
CQQEPDDLKQKACES | human IgE | peptide microarray | peptide, peanut-allergic patient sera | concentration not given, 16 h, 4 °C |  | patients with IgE binding | 42%
CC(=O)N[C@@H](Cc1ccccc1)C(=O)N[C@H](Cc1cccc2ccccc12)C(=O)N[C@@H](CCCNC(=N)N)C(=O)N[C@@H](Cc1c[nH]c2ccccc12)C(N)=O | Melanocortin receptor 3 (Mus musculus, UniProt P33033) | receptor activity, agonist, cell-based |  | up to 100 µM, Schild antagonism analysis |  | agonist and antagonist activity | inactive
CCCCOC(=O)c1scc(C)c1NC(=O)C(C)NCCC (centres unmarked) | SCN9A | cell membrane chromatography |  |  | higher = stronger binding | capacity factor k′ | 73
CCCCC/C=C\C/C=C\C/C=C\C/C=C\CCCC(=O)OC(CO)CO | FABP1 (Homo sapiens, UniProt P07148) | binding, DAUDA displacement |  | concentration not given | relative to: no competitor | remaining fluorescence | 65 ± 1.3%
CC1=C(C(=O)OCc2ccccc2)C(c2ccc(-c3ccccc3C)cc2)N(Cc2ccc(-c3nnn[nH]3)cc2)C(=S)N1 (centres unmarked) | HSPA1A | ATPase activity, inhibitor |  | 100 µM, without Hsp40 | relative to: DMSO, negative means inhibition | fold change in activity | -1.3 fold
Clc1cccc(Nc2nnc(-c3ccccc3)c3ccccc23)c1 | PDE2A (Homo sapiens, UniProt O00408) | cAMP hydrolysis, inhibitor, fluorescence polarization | recombinant enzyme | up to 100 µM, 30 min preincubation, 30 °C, with: fluorescein-cAMP 25 nM |  | IC50 | inactive
CC1=C(C(=O)OCc2ccccc2)C(c2ccc(-c3ccccc3)cc2)N(Cc2ccc(-c3nnn[nH]3)cc2)C(=O)N1 (centres unmarked) | HSPA1A | ATPase activity, inhibitor |  | 100 µM, without Hsp40 | relative to: DMSO, negative means inhibition | fold change in activity | -1.2 fold
CC[C@]1(O)C[C@H]2CN(CCc3c([nH]c4ccccc34)[C@@](C(=O)OC)(c3cc4c(cc3OC)N(C=O)[C@H]3[C@@](O)(C(=O)OC)[C@H](OC(C)=O)[C@]5(CC)C=CCN6CC[C@]43[C@@H]65)C2)C1 | SLC22A5 (Homo sapiens, UniProt O76082) | transporter uptake, inhibitor |  | 10 µM |  | inhibition | 31.1%
O=c1c(O)c(-c2ccccc2)oc2cc(O)cc(O)c12 | Kcnh1 (Mus musculus, UniProt Q60603) | inside-out patch clamp | Xenopus oocytes | 10 µM |  | V1/2 shift | -3.3 ± 1.9 mV
CCC(C(=O)Nc1c(C)csc1C(=O)OC)N1CCN(C(C)C)CC1 (centres unmarked) | SCN9A | cell membrane chromatography |  |  | higher = stronger binding | capacity factor k′ | 82.6
BzATP | P2rx7 | ion current, agonist, two-electrode voltage clamp | Xenopus laevis oocytes | 10 µM |  | deactivation time constant | 18 ± 1.6 s
O=c1cc(-c2ccccc2)oc2cc(O)ccc12 | MAL12 | enzyme activity, inhibitor, absorbance |  | 250 µM |  | inhibition | 37.1%
COCc1ccc(C=O)o1 | Hemoglobin subunit alpha, with sickle beta chain (HBA1, Homo sapiens, UniProt P69905) | oxygen affinity | sickle red cell lysate | 2 mM | relative to: untreated | P50 change | 39.4 ± 8.3%
COc1c(O)cc(O)c2c(=O)cc(-c3ccc(O)cc3)oc12 | MAL12 | enzyme activity, inhibitor, absorbance |  | 25 µM |  | inhibition | 58.2%
COc1cc2c(cc1OC)-c1c/c(=N\c3c(C)cc(C)cc3C)n(C)c(=O)n1CC2 | PDE1C (Homo sapiens, UniProt Q14123) | cGMP hydrolysis, inhibitor |  | up to 50 µM |  | IC50 | inactive
C[C@H]1CN(C(=O)Nc2ccc(C(F)(F)F)cc2)CCN1c1ccnc(Nc2ccc(Cl)cc2)n1 | MAL12 | enzyme activity, inhibitor | Saccharomyces cerevisiae | with: p-nitrophenyl glucoside substrate | relative to: S over R enantiomer | activity ratio | ~3 fold

For quick reference, copied from above:
Molecule | target | assay | test system | setting | scale | quantity | result
CCCCC/C=C\C/C=C\C/C=C\C/C=C\CCCC(=O)OC(CO)CO | FABP1 (Homo sapiens, UniProt P07148) | binding, DAUDA displacement |  | concentration not given | relative to: no competitor | remaining fluorescence | 65 ± 1.3%
O=c1c(O)c(-c2ccccc2)oc2cc(O)cc(O)c12 | Kcnh1 (Mus musculus, UniProt Q60603) | inside-out patch clamp | Xenopus oocytes | 10 µM |  | V1/2 shift | -3.3 ± 1.9 mV
COc1ccc(Cl)cc1C(=O)NCCc1ccc(S(=O)(=O)NC(=O)NC2CCCCC2)cc1 | Abcc9/KCNJ11 (Mus musculus, UniProt P70170+Q14654) | channel activity, inhibitor, inside-out patch clamp | HEK293 | 10 µM, with: 50 µM MgATP | relative to: before drug | remaining activity | 22 ± 4%
O=Cc1ccc(COC(=O)c2ccccc2)o1 | HBA1 with beta chain | measured: haemoglobin A adduct | human normal whole blood | 2000 µM, 24 h, hematocrit 30% |  | peak modification | 21%
COc1cc2c(cc1OC)-c1c/c(=N\c3c(C)cc(C)cc3C)n(C)c(=O)n1CC2 | PDE1C (Homo sapiens, UniProt Q14123) | cGMP hydrolysis, inhibitor |  | up to 50 µM |  | IC50 | inactive
